Published values of several laboratories.
Every numbered part comes from another study and shows a few of its results, in no order. Positions count from the first letter of the parent shown.
Sequence of UniProt P17106 (whole entry, looked up): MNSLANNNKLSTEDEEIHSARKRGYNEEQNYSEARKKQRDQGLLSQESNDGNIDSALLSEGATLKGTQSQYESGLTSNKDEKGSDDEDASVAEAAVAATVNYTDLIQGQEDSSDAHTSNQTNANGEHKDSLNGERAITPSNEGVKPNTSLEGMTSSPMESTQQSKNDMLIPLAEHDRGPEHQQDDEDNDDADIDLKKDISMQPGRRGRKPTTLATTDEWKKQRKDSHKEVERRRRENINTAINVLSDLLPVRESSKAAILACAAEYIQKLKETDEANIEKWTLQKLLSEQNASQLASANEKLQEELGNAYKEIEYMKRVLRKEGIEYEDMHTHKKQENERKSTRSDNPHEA
Sequence of UniProt Q9UKR3 (whole entry, looked up): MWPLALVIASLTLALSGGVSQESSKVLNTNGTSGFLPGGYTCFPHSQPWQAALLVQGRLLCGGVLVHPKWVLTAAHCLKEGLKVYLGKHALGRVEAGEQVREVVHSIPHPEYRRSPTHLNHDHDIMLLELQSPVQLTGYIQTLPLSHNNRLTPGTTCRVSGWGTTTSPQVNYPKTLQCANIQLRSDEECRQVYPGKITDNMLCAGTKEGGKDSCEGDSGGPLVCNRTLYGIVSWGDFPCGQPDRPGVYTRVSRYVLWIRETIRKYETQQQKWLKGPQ

Set 1 — target: CCNA2, cyclin fold, Cln2 fusion (human); technique: yeast growth competition, sequencing; sample: yeast; setting: strong parent motif; reference: not given; direction: higher = stronger binding; endpoint: normalised enrichment score
Starting sequence: viral docking peptide; PGASRRLFGSSAD; partner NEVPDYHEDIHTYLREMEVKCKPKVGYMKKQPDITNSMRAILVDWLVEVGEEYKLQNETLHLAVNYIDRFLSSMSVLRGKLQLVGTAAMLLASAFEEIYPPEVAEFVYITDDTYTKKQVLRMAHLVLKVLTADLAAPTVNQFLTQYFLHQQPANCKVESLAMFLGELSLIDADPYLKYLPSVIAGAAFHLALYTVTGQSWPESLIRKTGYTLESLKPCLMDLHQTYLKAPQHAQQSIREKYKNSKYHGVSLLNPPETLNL
PAASRRLFGSSAD [G2A]: 2.25
PGASRALFGSSAD [R6A]: 0.657
PGASRRLFGSAAD [S11A]: 3.51
PGASRRLLGSSAD [F8L]: 0.627
PGASRRAFGSSAD [L7A]: 0.184
PGASRRLFGSSAA [D13A]: 2.57
PGASKRLFGSSAD [R5K]: 1.41
PGASRRLFGASAD [S10A]: 2.04

Set 2 — read-out: peptide-MHC binding; form: peptide; tested at: concentration not given; endpoint: binding
Target: HLA class I histocompatibility antigen, A alpha chain, allele A*80:01 (Homo sapiens, UniProt P04439)
EVNAHIHTM: inactive
GVPPKVVSY: inactive
AQKLATKPV: inactive
LEEDIQHFL: inactive
ILMARYMSK: inactive
SCRVKLSAL: inactive
YFHKRDMRL: inactive
ERTDLFFPV: inactive

Other studies, line by line
TGTACGAAGCTATTCCACGTGGTTATAGTAGTTAGGGTCTTGATTCGCTTGACGCTGCTG
fluorescence intensity (Centromere-binding protein 1, full length, N-terminal tag (CBF1, Saccharomyces cerevisiae, UniProt P17106, residues 1-351); protein-binding microarray; double-stranded DNA, one strand shown, in vitro; 0.8 µM, whole 60-bp probe, no competitor; higher = stronger binding): 4010 a.u.

CN(C)C(=O)COC(=O)Cc1ccc(OC(=O)c2ccc(NC(=N)N)cc2)cc1
IC50 (Kallikrein-13 (Homo sapiens, UniProt Q9UKR3)): 845 nM

Some of these lines once more (set 2):
GVPPKVVSY: inactive
EVNAHIHTM: inactive
